Assay results from different studies.
Each numbered part is a random draw from the data of one study; scales do not carry over between parts. Positions count from the first letter of the parent shown.

Series 1 — technique: DHFR PCA, deep sequencing; sample: yeast; added: (+)-ABA 4.8 µM; reference: wild-type fitted maximum; reading: higher = stronger binding; endpoint: relative binding score
Target: ABI1, truncated, D143A, DHFR fusion (Arabidopsis thaliana)
Setting: methotrexate growth selection, single substitutions
Parent: PYL1, truncated, DHFR fusion (Arabidopsis thaliana); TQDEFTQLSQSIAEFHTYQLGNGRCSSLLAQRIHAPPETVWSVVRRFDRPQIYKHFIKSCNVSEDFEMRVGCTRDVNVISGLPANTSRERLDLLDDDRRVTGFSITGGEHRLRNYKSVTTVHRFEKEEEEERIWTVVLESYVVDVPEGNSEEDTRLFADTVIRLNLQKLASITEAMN
A158G: 0.367%
I57Y: -4.1%
D96H: 7.34%
R88Y: 66.2%
Y141F: 17.6%
R98F: 5.66%
V136F: 37.1%
T173E: 5.4%
L164F: 79.8%
E152I: 41.1%
T106H: 27.5%
L29V: 71.4%
D97M: 60.3%
N22M: 70.9%
Q167V: 45.1%
R163M: 32.7%
Q51D: 69.1%
D153A: -2.15%
S27R: 16.6%

Series 2 — technique: universal PBM; molecule type: double-stranded DNA, one strand shown; sample: in vitro; concentration: not given; reading: higher = stronger binding; endpoint: E-score
Target: Sal-like protein 4, full length isoform B (SALL4, Homo sapiens, UniProt Q9UJQ4-2, residues 1-616)
Setting: 8-mer, flanks averaged, mean of replicates
CACTAGCC: -0.2
AGGTCGGA: -0.0651
ATGGCGCG: -0.00948
ACGGCCGC: -0.276
GATCCTAA: -0.115
AAGATCTT: 0.231
AACTGTAG: -0.0306
AGGGAGGC: -0.267
ACCGAACC: -0.18
AGAGACGA: 0.00102
CAATGGAC: 0.0313
CCACCGCG: -0.251
ATTTGTAA: 0.289
AACCGTCG: -0.13
CATTGAAA: 0.161
GGAAATCA: 0.117
ACATACTG: -0.00527
ACAACGCA: 0.0444
GATGGAGC: -0.167
CCTTTGTC: 0.0287
ATGACGGA: 0.0568
CACCCATA: -0.106
AAGACAAG: 0.148

Series 3 — technique: RNA Bind-n-Seq; molecule type: RNA; sample: in vitro; concentration: not given; reference: input RNA pool; reading: higher = stronger binding; endpoint: bound/input enrichment
Target: RING finger protein unkempt homolog, zinc fingers 1-6, GST-SBP tag (UNK, Homo sapiens, UniProt Q9C0B0, residues 30-357)
Setting: RNA with constant flanks, human-mouse chimeric sites, ends assumed
Shared flanks, not repeated: GGGAGUUCUACAGUCCGACGAUC … CAACAGAGGAUUGAGCAUCA
Target sequence (chain): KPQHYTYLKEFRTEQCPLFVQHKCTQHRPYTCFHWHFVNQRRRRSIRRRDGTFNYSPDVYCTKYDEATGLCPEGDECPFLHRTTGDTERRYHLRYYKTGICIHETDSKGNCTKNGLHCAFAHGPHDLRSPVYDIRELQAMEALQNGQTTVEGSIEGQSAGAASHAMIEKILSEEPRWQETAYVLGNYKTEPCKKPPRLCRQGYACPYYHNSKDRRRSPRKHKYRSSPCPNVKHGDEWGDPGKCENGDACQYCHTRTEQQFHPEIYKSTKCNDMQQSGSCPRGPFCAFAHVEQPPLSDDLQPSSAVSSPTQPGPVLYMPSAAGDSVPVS
GCCACCAGAUCCCAGAAACAUGACCCUUGCAGCCUAUAAGGAGAAGAUGAAGGAGCUCCCGCUGGUGUCCUUGUUCUGCUCCUGCUUCCUGGCCGAUCCCCUGAAUAAGUCGUCCUACAA: 0.17 ratio
GUAGCUGGGACUACAGAAGAAUGCUGAAUUUCAGUCACUUGCUGAUGACUUCUGAUGACCUAGCAAAUGUUGGCAUUGUUGACUGCUGAGAAGAUACUUCUGAGGACCCACGUCUAAGGU: 0.0735 ratio
GGUGGGGGGUUGUCAUUCGUUUGAGCUGCUGAUUUUCAUGAGUCGCCUUCAAAACUCUCGUGUAGGGUUGACAAUGUGGGGGGGUGGGGGAUCCAGCUUAUUCUUUUUCCCCAGCCCCCA: 0.749 ratio
CACGUGUCUGCAGUACUUGAUGUGGACUACUCUCCCACUGGGAAGGAAUUUGUGUCUGCUAGUUUCGAUAAGUCUAUUAGAAUCUUUCCUGUGGACAAGAGCCGAAGCAGGGAGGUAUAU: 1.46 ratio
GGCCUGGGACCGUCCUGGGCUAGUACAAAUAGCGGCAGUGGAGGCUCGAGAGGAAAGUUUGUUAGUGGAGGCAGUGGUAGAGGCCGUAUGUACGCUCCUUUACACGAAUAGAUGUGUUCU: 0.476 ratio
CUUUUUAAGAAGAUAUGUGAUGGGAUCUUCUAUACCCCUCAGUACUUAAACCCUUCAGUGAUUAGCCUUUUGAAACAUAUGCUGCAGGUGGAUCCCAUGAAGAGGGCCGCAAUAAAAGAU: 0.483 ratio
UAAGUUAUUUUGUACAGCUUUGUAAAUUCUUAACAUUUUUAUAUUGCCAUGUUUAUUUUGUUUGGGUAAUUUGGUUCAUUAAGUACAUAGCUAAGGUACAUCUUUCAUUUUUCAGUAAUU: 1.14 ratio
CAGCCUCAGAGCCCUGACUUCCUGGACAUUACCAACCCUAAAGCGGUAUUAGAAAAUGCAUUGAGAAACUUCGCCUGUCUGACGACUGGAGAUGUGAUUGCUAUCAACUACAAUGAGAAG: 0.509 ratio

Series 4 — target: CCND1, cyclin fold, Cln2 fusion (human); technique: yeast growth competition, sequencing; sample: yeast; setting: weak parent motif; reference: not given; reading: higher = stronger binding; endpoint: normalised enrichment score
Parent: ORC1 docking peptide (human); PRARKRLELGNLG
N11H: -0.145
R6N: -0.0308
G13W: -0.237
R2Q: -0.105
P1C: 0.776
L9V: 0.366
R2K: 0.0273
A3N: 0.244
G13R: -0.231
G10M: 0.308
N11P: 0.121
E8P: 0.185
G10D: 0.604
P1W: 0.397
L9Y: -0.0914
K5N: 0.133
G13T: -0.263
G13F: 0.344
L9I: -0.146
R2E: 0.653
N11I: -0.517
R4F: -0.172
R2F: -0.288
P1M: -0.475
R2C: -0.101

Repeated from above (series 3):
GCCACCAGAUCCCAGAAACAUGACCCUUGCAGCCUAUAAGGAGAAGAUGAAGGAGCUCCCGCUGGUGUCCUUGUUCUGCUCCUGCUUCCUGGCCGAUCCCCUGAAUAAGUCGUCCUACAA: 0.17 ratio
GUAGCUGGGACUACAGAAGAAUGCUGAAUUUCAGUCACUUGCUGAUGACUUCUGAUGACCUAGCAAAUGUUGGCAUUGUUGACUGCUGAGAAGAUACUUCUGAGGACCCACGUCUAAGGU: 0.0735 ratio
GGUGGGGGGUUGUCAUUCGUUUGAGCUGCUGAUUUUCAUGAGUCGCCUUCAAAACUCUCGUGUAGGGUUGACAAUGUGGGGGGGUGGGGGAUCCAGCUUAUUCUUUUUCCCCAGCCCCCA: 0.749 ratio
CACGUGUCUGCAGUACUUGAUGUGGACUACUCUCCCACUGGGAAGGAAUUUGUGUCUGCUAGUUUCGAUAAGUCUAUUAGAAUCUUUCCUGUGGACAAGAGCCGAAGCAGGGAGGUAUAU: 1.46 ratio
GGCCUGGGACCGUCCUGGGCUAGUACAAAUAGCGGCAGUGGAGGCUCGAGAGGAAAGUUUGUUAGUGGAGGCAGUGGUAGAGGCCGUAUGUACGCUCCUUUACACGAAUAGAUGUGUUCU: 0.476 ratio
CUUUUUAAGAAGAUAUGUGAUGGGAUCUUCUAUACCCCUCAGUACUUAAACCCUUCAGUGAUUAGCCUUUUGAAACAUAUGCUGCAGGUGGAUCCCAUGAAGAGGGCCGCAAUAAAAGAU: 0.483 ratio
UAAGUUAUUUUGUACAGCUUUGUAAAUUCUUAACAUUUUUAUAUUGCCAUGUUUAUUUUGUUUGGGUAAUUUGGUUCAUUAAGUACAUAGCUAAGGUACAUCUUUCAUUUUUCAGUAAUU: 1.14 ratio
CAGCCUCAGAGCCCUGACUUCCUGGACAUUACCAACCCUAAAGCGGUAUUAGAAAAUGCAUUGAGAAACUUCGCCUGUCUGACGACUGGAGAUGUGAUUGCUAUCAACUACAAUGAGAAG: 0.509 ratio
